# Measured values pooled from the literature.
# Numbered parts are unrelated; each lists some results of a single study.

# Study 1 — method: competition protein-binding microarray; form: double-stranded DNA, one strand shown; medium: in vitro; concentration: 2 µM; with: Cbf1 competitor, 0.05 µM; reading: higher = stronger binding
# Target: Phosphate system positive regulatory protein PHO4, full length, GST-tagged (PHO4, Saccharomyces cerevisiae, UniProt P07270, residues 1-312)
# Setting: whole 60-bp probe, lowest competitor level
# Residues (chain): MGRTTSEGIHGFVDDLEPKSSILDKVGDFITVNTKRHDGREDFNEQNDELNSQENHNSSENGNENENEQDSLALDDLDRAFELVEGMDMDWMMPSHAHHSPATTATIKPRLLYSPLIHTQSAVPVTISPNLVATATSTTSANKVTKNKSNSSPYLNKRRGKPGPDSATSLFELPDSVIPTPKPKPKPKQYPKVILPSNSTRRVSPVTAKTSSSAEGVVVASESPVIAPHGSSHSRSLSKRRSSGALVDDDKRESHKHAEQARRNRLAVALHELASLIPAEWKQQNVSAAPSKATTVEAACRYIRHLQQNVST
Strand,fluorescence intensity [a.u.]
TTACTCTTTAATAATCGGCAAGAAATAATTGAATTTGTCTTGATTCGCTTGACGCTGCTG,2930
CTTTCCCGATCTTTGCACGTGTTTTTAGCACATTTGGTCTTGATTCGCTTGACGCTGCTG,15500
CTTCTGTAAATTTTTCACGTGAGATGACGCGCCCCGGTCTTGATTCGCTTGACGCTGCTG,9700
TATTGCAGCTGGTCCCACGTGGGTAAGCGGTTGGCGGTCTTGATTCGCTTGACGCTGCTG,20800
TGCGCAACAACTTGGTCAGTGGGTGTATGTCTAGAAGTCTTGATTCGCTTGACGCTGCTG,4290
TGCGCAACAACTTTTCACGTGGGGTTATGTCTAGAAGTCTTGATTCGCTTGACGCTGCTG,15400
TAGTTTGTCGCCCGTCACGTGCGATAATGCAAAATAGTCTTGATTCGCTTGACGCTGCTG,15500
GTCTTGTCTCATTGATTCGTGGGTGTCCCCACTTCAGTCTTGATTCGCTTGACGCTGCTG,5990

# Study 2 — method: RNA Bind-n-Seq; form: RNA; medium: in vitro; concentration: 365 nM; relative to: no-protein control; reading: higher = stronger binding
# Target: RNA binding protein fox-1 homolog 2, RRM domain, GST-SBP tag (RBFOX2, Homo sapiens, UniProt O43251-10, residues 100-194)
# Setting: natural RNA segment, single round, ends assumed
# Construct (chain): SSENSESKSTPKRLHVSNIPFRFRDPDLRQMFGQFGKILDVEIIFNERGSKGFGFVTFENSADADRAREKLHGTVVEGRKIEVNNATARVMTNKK
Strand,RBNS enrichment (R)
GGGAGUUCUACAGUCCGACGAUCUAAUACACGGUGAUUUUAAAACAACCAUAAAAUUGAUUCAGAGUCCACUGACCCUUACAGAUGUAGGUAUACCCUUACUGGAGAGGGAACUCUGAUGAGGAGAUGCUGGUUGGAAUUCUCGGGUGCCAA,0.471
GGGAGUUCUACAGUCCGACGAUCGCUCCACCUUUCAGCCCACGUCACGUGUAGUGUCCAUUUUGUGAAGCCCUGUUGUGCCACAGAGUGUAGCCAGGUCCCCCUGCAGCUAGUCCUAGUGAACCUCACCCCGAUGGAAUUCUCGGGUGCCAA,0.378
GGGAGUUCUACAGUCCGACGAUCCCGUGAAGUGUGAGAAAACAAGGAGGGGAACAAAUGGGACUUACCAAGCAAGGUCAUUGUUGUGAAAAGUCUGUAAAUGCUUCUAACUCUUCCCCCUCUUAAAAUCAUAAUGGAAUUCUCGGGUGCCAA,0.406
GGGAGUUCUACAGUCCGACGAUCGAACCUGAGAGCCAGAGACUUCUUGGGCCUUCCUGCCUGCCACCCCCUAGGGGCCAGGACAGGACCAGUUUACCUCUUUCCAGAUAUGGUGGUUGGAGGGCUGGUUCAGGUGGAAUUCUCGGGUGCCAA,0.282
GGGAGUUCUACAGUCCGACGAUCCAGGAGAAUAGGGAAUGAGAAAUAGAAAUCCAAGGCUGAAGCCAAAAGUAAGGAGGGUGGCCAAAUGGUAAACUAUUGGUACUUGUUUUCUACCUCCUAAAAAUGUAGCUUGGAAUUCUCGGGUGCCAA,1.8
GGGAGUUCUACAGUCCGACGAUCAUUGGGAUUUCCCUCCAAACCAAACUGUCCUUUAAGGGGCAGCCUCCUCUUUUACUAACUCCACCCUUUCUCAUCUCUGGGACCCAGCAGGGACCUGGAGAGGCCAACAGUGGAAUUCUCGGGUGCCAA,0.335
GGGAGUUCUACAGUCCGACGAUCCAUGCCAACAUGGUUCAUUUCCAAGGGCACCCUAUAACCAGAGAGCACAUUAAUUCCUGUCCUAUAAGAGGGCUGUGGGAAACUGUGUACCUGGAGGUGGUCCAUGCCAGUGGAAUUCUCGGGUGCCAA,0.23
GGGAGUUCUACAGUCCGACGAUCUAGAUUUGUAUCCUUGAUGAAUCUGGGGUUUCCAUCAGACUGAACUUACACUGUAUAUUUUGCAAUAGUUACCUCAAGGCCUACUGACCAAAUUGUUGUGUUGAGAUGAUUGGAAUUCUCGGGUGCCAA,0.501
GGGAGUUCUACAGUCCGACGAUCCACUCCAGAACGGCCACGGGUUUCCCAGAGUUCUAUGGUCUUCCCAAGAGAAUUUUUAAUUGUAAAUGCAGACUUGGGAAGGACUUGGACUUUUAACCUGGUUUUGCUUUUGGAAUUCUCGGGUGCCAA,0.488
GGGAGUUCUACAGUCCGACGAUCUAAAGGGGGUGUUAAUCGGUGUAAAUCGCUGUUUGGAUUUCCUGAUUUUAUAACAGGGCGGCUGGUUAAUAUCUCACACAGUUUAAAAAAUCAGCCCCUAAUUUCUCCAUUGGAAUUCUCGGGUGCCAA,0.496

# Study 3 — method: RNA Bind-n-Seq; form: RNA; medium: in vitro; concentration: not given; relative to: input RNA pool; reading: higher = stronger binding
# Target: RING finger protein unkempt homolog, zinc fingers 1-6, GST-SBP tag (UNK, Homo sapiens, UniProt Q9C0B0, residues 30-357)
# Setting: RNA with constant flanks, human and mouse sites, ends assumed
# Target sequence (chain): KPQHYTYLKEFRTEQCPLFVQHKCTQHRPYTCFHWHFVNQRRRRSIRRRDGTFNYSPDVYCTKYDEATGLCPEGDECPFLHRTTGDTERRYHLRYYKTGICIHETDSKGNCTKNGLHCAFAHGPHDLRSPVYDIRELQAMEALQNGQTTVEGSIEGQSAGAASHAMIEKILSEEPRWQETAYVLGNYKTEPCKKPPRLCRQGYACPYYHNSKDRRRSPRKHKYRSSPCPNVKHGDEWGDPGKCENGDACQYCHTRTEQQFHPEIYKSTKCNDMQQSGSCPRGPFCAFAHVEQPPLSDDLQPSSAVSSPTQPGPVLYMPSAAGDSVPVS
Strand,bound/input enrichment [ratio]
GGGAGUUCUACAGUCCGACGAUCUGAGGGGAGCGUCCAGGUCCCGCGUCGCGCGUCGCGGGUCGCCUAGCGUUUCCCGCUGGUUUUGUCGCUUUCCGGAUUCUCGAGCCUCUUCAGGACCGUCACCAUGGAGUUGUCACCGCUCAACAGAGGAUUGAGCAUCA,0.0632
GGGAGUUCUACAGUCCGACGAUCUUGACAUUACAGCCAAAAUGGUGCUGUCCCAGAGACAACGAGAUGAACUAAAUCGAGCUAUAGCAGAUUAUCUUCGUUCAAAUGGCUAUGAAGAGGCAUAUUCCGUUUUUAAAAAGGAAGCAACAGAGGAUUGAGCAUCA,0.225
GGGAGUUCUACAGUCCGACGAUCUAUGCUUCUUUUUUAUCCAUGUAAUGUGUUGCCUUUUUUAAAAGAACAAAUACUACAAUAACGUGUGAAGUGGUCAAUCCCUAAGACAUCAAAGAAAGGCCACAUAACCCUACCCUUCUACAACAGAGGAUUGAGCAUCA,0.301
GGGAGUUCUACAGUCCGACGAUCAGAUUAAGAUUCAAUCAUUUUGCUACAGAAUGUAGCUGGGAUCAUAUGUAUGUUUAUGAUGGAGAUUCAAUAUAUGCACCUUUAAUAGCUGUACUUAGUGGUUUGAUAGUCCCUGAAAUACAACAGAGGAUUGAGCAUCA,0.561
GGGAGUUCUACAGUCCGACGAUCGGUGCCCCCUCAUUUGUUCGACUGUAUCAGUAUCCCAACUUUGCCGGACCUCAGGCAGCACUGGCCAAUAAAAGCUUCUUUAAAGCUGAUAAGGUUACAAUGCUGUGGAAUAAAAAAGCUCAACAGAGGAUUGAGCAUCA,0.353
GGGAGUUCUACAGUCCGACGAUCGGCCAGGCUUUUGAGCUGAUCUUGAAGCCACCAUCUCCUAUCUCAGAAGCCCCACGAACUUUAGCUUCUCCAAAGAAGAAAGACCUGUCCCUGGAGGAGAUCCAGAAGAAACUGGAGGCUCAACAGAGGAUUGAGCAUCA,0.121
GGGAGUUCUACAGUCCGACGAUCCCUUCCCACCUCUUCCUAUGCAACAAGAUCCGAUACUUGGACUUAUCGUACAAUGACAUUCGAUUUAUCCCCCCUGAAAUUGGAGUUCUACAAAGUUUACAGUAUUUUUCCAUCACAUGUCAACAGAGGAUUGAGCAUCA,0.508
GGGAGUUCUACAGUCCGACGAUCAUUAAUGCCCUUACUCUAUUUGAGAUUAUCUUCGACAACCUCAGAGCAGAAGUGUUCAACUACAGGGAAUUCAACAAGGGGUCCCUGUUUUACUUAUGCACUACAUCUGGGGUGUGUGUGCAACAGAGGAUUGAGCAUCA,0.234
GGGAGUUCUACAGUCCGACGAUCAGUGAGGAGGGGGUGUUGUAACAAAAUUGGACAACUUAAAAGAAUGGUGUGUGCUGGGUGAAAGACAAAGACUAAAGAAUGAGGAAACAAACGUGAUGCCUGGCCAGUGACUGUCAUAUACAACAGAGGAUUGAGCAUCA,0.589
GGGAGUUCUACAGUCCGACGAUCGAGUCAUAUUUGAUGUUUGUGAAGUCCCUGUGUUUGGGGCCAACACUGAUCUACUCGGCUAAGUUUGUGCUUGUCUUCCCGCUCAUGUACCACUCACUGAAUGGGAUCCGACACUUGCUACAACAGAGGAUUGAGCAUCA,0.157
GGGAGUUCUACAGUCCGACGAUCAGAUAUCCUUCGGCUGAAUGUGGGUGGCUGCAUCUACACAGCCCGGCGAGAGUCUUUGUGCCGCUUUAAGGAUUCUAUGCUGGCAUCUAUGUUUAGUGGUCGUUUCCCUCUAAAAACAGACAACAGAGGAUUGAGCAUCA,0.208

# Mixed results
Molecule,target,test,test system,setting,scale,quantity,result
"PhoQ, residues 284 288 289 292 302 303 SMYGEC","PhoP, residues 12 14 15 18 19 HEGLL (Escherichia coli, UniProt P23836)","Sort-seq, item: YFP reporter",E. coli,"PhoQ-PhoP variant library, with: 10 µM Mg2+","relative to: high Mg2+ state, higher = stronger signaling",fold induction,0.988
